Results pooled from the literature.
A part holds a random share of what one study measured. “And” joins repeats or separate records; there may be more than shown. Changes are numbered by the printed parent chain.

Study 1 — Substitution: F124W; technique: DHFR PCA, deep sequencing; matrix: yeast; relative to: wild-type fitted maximum; direction: higher = stronger binding
Target: ABI1, truncated, D143A, DHFR fusion (Arabidopsis thaliana)
Notes: methotrexate growth selection, single substitutions
Parent: PYL1, truncated, DHFR fusion (Arabidopsis thaliana); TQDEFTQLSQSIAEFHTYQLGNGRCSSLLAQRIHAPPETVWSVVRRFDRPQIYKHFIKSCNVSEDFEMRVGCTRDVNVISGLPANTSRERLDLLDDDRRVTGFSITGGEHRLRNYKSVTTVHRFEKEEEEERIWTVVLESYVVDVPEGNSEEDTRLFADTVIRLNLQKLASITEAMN
| conditions | relative binding score [%] |
| --- | --- |
| with: (+)-ABA 710 µM | 105 |
| with: (+)-ABA 0 µM | 29.2 |
| with: (+)-ABA 2500 µM | 104 |
| with: (+)-ABA 200 µM | 111 |
| with: (+)-ABA 1.4 µM | 66.3 |
| with: (+)-ABA 4.8 µM | 85.5 |

Study 2 — technique: RNA Bind-n-Seq; form: RNA; matrix: in vitro; concentration: not given; relative to: input RNA pool; direction: higher = stronger binding
Target: RING finger protein unkempt homolog, zinc fingers 1-6, GST-SBP tag (UNK, Homo sapiens, UniProt Q9C0B0, residues 30-357)
Sequence of UniProt Q9C0B0 (30-357, looked up): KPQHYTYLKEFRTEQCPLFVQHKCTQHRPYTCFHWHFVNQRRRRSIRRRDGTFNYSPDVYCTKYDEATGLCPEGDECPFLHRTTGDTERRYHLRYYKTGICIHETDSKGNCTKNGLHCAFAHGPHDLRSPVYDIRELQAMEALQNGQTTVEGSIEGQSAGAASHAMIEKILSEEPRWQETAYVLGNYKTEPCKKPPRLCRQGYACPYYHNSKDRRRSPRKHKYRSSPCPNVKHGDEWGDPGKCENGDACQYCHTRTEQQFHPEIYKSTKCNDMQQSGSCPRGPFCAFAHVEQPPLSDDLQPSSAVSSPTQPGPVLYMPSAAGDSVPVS
Notes: RNA with constant flanks, human-mouse chimeric sites, ends assumed
| Sequence | bound/input enrichment [ratio] |
| --- | --- |
| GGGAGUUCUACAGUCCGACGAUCCAGUCCCCGUGUCCCAGUGCAGGACGAUGUGAACAAAUCGAAGACAUGGACCCUCUACUGUAGUUGAUGAUUCUCGAAAUGUGCUAUUAUUGUUUGUCUUUUUUUUUUUUUUUUUAAAGACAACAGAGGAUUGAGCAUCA | 0.984 |
| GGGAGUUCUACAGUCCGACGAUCAACAGAUUGUCUUUAAGGUCAACGUAGAAUGCUUGGGGGGUGAUCAUUGUUGCCCAUGUGCCUUCUGACUGAGCUUUAAUGCUGUUCCAUGUUACAUCUUUCCUUCACUCCAGAAUUGUUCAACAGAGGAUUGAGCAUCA | 0.191 |
| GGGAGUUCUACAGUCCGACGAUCCCCCAAUACCAUUUGCAGGUCUGGAACUGCACUCUCUUUUUUAAAAAACAUGUAUACAUUUUAGGGCUGUAGAUUUACUUUCCUAUUUUCUUUUCCAAUUGCUGACUUUUGAGCACAGAACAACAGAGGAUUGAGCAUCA | 4.51 |
| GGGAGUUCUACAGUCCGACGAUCAGAAAGCAAAACUUGGAACGAUUUAAGAAAGGAGAUGUAAGAUUCUUGAUUUGCACAGAUGUAGCUGCUAGAGGGAUUGAUAUCCACGGCGUUCCUUAUGUGAUCAACGUCACCCUGCCUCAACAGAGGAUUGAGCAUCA | 0.211 |
| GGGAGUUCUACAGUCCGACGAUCAUGGAACAUUUCGAUGCAUCACUUAGUACCUAUUUCAAGGCCUUCCUGGGCCCCCGAGAUACAAGAGUCAAAGGAUGGUUCCUCCUGGACAAUUACAUCCCUACGUUUGUCUGUUCUGUUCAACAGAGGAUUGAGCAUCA | 0.254 |
| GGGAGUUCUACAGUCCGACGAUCGAUCAUGAACCACCAUCCAGAAAUGAAAUGAGAUUACCCAGACGAGCCCAAAACCGCGCGCUACAGAAAAGUAAACUUAACCUUGCAGAGUUCCUUAAUGAAGAUACAAGUUAAGAGAGCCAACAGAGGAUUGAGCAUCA | 0.304 |
| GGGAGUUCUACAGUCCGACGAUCCUGGCCUUCUGAGCAUCAGGGGCCUCCUUCUCUGCAUUCACUGCUUCUGCAUCAGAUACUUUCAGCUGCAACUCCCUACUGGGUGGGGCACCCAUUUCAGGCAGAAGGUUUUGGUACCCUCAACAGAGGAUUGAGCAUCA | 0.172 |
| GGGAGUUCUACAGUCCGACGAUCUCUGGUCACACUCGUGUGUAUGGUGUUUGCUUUGUGGACACUUCACUGGGCAAGUUUUUCAUAGGUCAGUUUUCGGAUGACCGCCACUGUUCCAGAUUUAGGACUCUAGUGGCUCACUAUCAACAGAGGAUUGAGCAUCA | 0.155 |

Study 3 — technique: protein-binding microarray; form: hairpin DNA; matrix: in vitro; concentration: not given; relative to: not given; direction: higher = stronger binding
Target: Runt-related transcription factor 1, full length (RUNX1, Homo sapiens, UniProt Q01196-8, residues 1-480)
Notes: whole hairpin DNA, median over replicate spots
| Sequence | median fluorescence [a.u.] |
| --- | --- |
| GAGGCCTGTCGCCGTTGGCCTCCTGGCCAACGGCGACAGGCCTCACACTC (5mC at 13) | 1730 |
| GAGGCCTGTTGTGGTGGGCCTCCTGGCCCACCACAACAGGCCTCACACTC | 2330 |
| GAGGCCTGGCGCGGTTGGCCTCCTGGCCAACCGCGCCAGGCCTCACACTC | 2350 |
| GAGGCCTGTTGTGGTTCGCCTCCTGGCGAACCACAACAGGCCTCACACTC (5mC at 17) | 2470 |
| GAGGCCTGTCCGGGTTGGCCTCCTGGCCAACCCGGACAGGCCTCACACTC (5mC at 33) | 1730 |
| GAGGCCAAACCGCAACAGCCTCCTGGCTGTTGCGGTTTGGCCTCACACTC | 9080 |
| GAGGCCTGTTGCCGTTGGCCTCCTGGCCAACGGCAACAGGCCTCACACTC (5mC at 31) | 1750 |
| GAGGCCCAACCGCAAAAGCCTCCTGGCTTTTGCGGTTGGGCCTCACACTC | 7010 |

Mixed results
| Compound | cell line | conditions | scale | measurement | value |
| --- | --- | --- | --- | --- | --- |
| COc1ccc2c(c1)O[C@H](c1ccc(OC)c(OC)c1)C[C@@H]2NC(=O)C1(c2ccc3c(c2)OC(F)(F)O3)CC1 (single isomer, unassigned) | sample B colorectal tumour organoid | 1 µM | relative to: DMSO | viability | 124% and 114% |
